# Measurements of several laboratories.
# Lines come from different studies, so protocols differ. “And” joins repeats or separate records; there may be more than shown. Numbers after ± are the reported error.
# Cell line: MDA-MB-468
Structure (SMILES),test,setting,how to read,measurement,value
Cc1cc(=O)[nH]c(=O)n1Cc1cn(-c2cc3ccccc3oc2=O)nn1,NCI60 single-dose screen,10 µM,,growth percentage,111%
Cc1cc(-c2ccccc2)n(-c2nc(-c3ccc(Cl)cc3)c3c(NC(=O)c4ccccc4)nnc-3[nH]2)n1,NCI60 SRB,10 µM,,growth percent,72%
CN1CCN(c2ccc3[nH]c(-c4ccc5[nH]c(-c6ccc(C(F)(F)F)cc6)nc5c4)nc3c2)CC1,SRB,"10 µM, 48 h",,growth percent,50.6%
COc1ccc2c(n1)CCN(C(=O)[C@H]1C[C@@H](CC(=O)O)C1)[C@H]2C(=O)Nc1cc(F)c2c(c1)CCC2(C)C,viable cell count,below 20 µM,,cell growth,no inhibition
CCCCN1CCN(c2ccc3[nH]c(-c4ccc5[nH]c(-c6ccc(C(F)(F)F)cc6)nc5c4)nc3c2)CC1,SRB,"10 µM, 48 h",,growth percent,-62.1%
CCOC(=O)c1c(C)nc2ccc(-c3ccc(F)cc3)cc2c1O,DCFDA flow cytometry,"concentration not given, 48 h",reference: untreated,ROS content,30%
CCS(=O)(=O)c1ccc(CC(=O)Nc2cc(Cl)c(-c3ccccc3OC(F)(F)F)c(Cl)c2)cc1,viable cell count,2.5 µM,,cell growth,inhibited
CCCN1CCN(c2ccc3[nH]c(-c4ccc5[nH]c(-c6ccc(C(F)(F)F)cc6)nc5c4)nc3c2)CC1,SRB,"10 µM, 48 h",,growth percent,-63.6%
Cn1cncc1C1=CN(c2ncnc3[nH]cnc23)CCS1,,,,GI50,6.2 µM
CCOC(=O)c1c(C)nc2ccc(-c3cccc(F)c3)cc2c1O,colony formation,8 µM,,inhibition,80%
O=C(Nc1nnc2n3c(nc(-c4ccc(Cl)cc4)c1-2)SCC3=O)c1ccccc1,NCI60 SRB,10 µM,,growth percent,97%
COc1ccc(OC)c(-c2nc3ccc(-c4nc5ccc(N6CCN(C)CC6)cc5[nH]4)cc3[nH]2)c1,SRB,"10 µM, 48 h",,growth percent,99.7%
COc1cccc2c1C(=O)c1c(O)c3c(c(O)c1C2=O)C[C@@](O)(C(=O)CO)C[C@@H]3O[C@H]1C[C@H](N)[C@H](O)[C@H](C)O1,WST-1,"concentration not given, 72 h, highest tested concentration",,maximal cytotoxicity,90.9%
Cc1cc(=O)[nH]n1-c1nc(-c2ccc(Cl)cc2)c2c(NC(=O)c3ccccc3)nnc-2[nH]1,NCI60 SRB,10 µM,,growth percent,92.9%
CCn1cc(-c2cc(Cn3ccnc3)cc3c2CCN([C@H](c2cc(OC)ccn2)C2CC2)C3=O)c(C(F)(F)F)n1,"cell growth, inhibitor",120 h,,EC50,9.09 µM
C#C[C@@]1(O)[C@@H](CO)O[C@@H](n2cc(I)c3c(N)ncnc32)[C@@H]1O,SRB,NCI-60 screen,,TGI,421 nM and 746 nM
COc1ccc(S(=O)(=O)ON=C2C=C(C)C(=O)C(C)=C2)cc1,western blot,"concentration not given, 7 h",,histone H3 and H4 acetylation,decreased
O=C(Nc1nnc2n3c(=S)[nH][nH]c3nc(-c3ccc(Cl)cc3)c1-2)c1ccccc1,NCI60 SRB,10 µM,,growth percent,106%
C#C[C@@]1(O)[C@@H](CO)O[C@@H](n2ccc3c(N)ncnc32)[C@@H]1O,SRB,NCI-60 screen,,TGI,3330 nM
Cn1cc(-n2cnc3c(NCc4nc5cc(Cl)c(Cl)cc5[nH]4)nc(N4CCOCC4)nc32)cn1,"cell viability, CellCounting-Lite","2.743 nM, 37 °C",higher = more viable cells,luminescence signal,413000 a.u. and 410000 a.u. and 385000 a.u.
CCCCN1CCN(c2ccc3[nH]c(-c4ccc5[nH]c(-c6ccc(OCC)cc6)nc5c4)nc3c2)CC1,SRB,"10 µM, 48 h",,growth percent,67.3%
O=c1ccn(Cc2cn(-c3c4ccccc4nc4ccccc34)nn2)c(=O)[nH]1,NCI60 single-dose screen,10 µM,,growth percentage,-50.8%
CCN(CC)c1ccc(C=NNC(=O)CSc2nc3ccccc3c(=O)n2Cc2ccc(S(N)(=O)=O)cc2)c(O)c1,NCI five-dose screen,,,TGI,5030 nM
CSc1nc(-c2ccc(Cl)cc2)c2c(NC(=O)c3ccccc3)nnc-2[nH]1,NCI60 SRB,10 µM,,growth percent,100%
NC1(c2ccc(-c3nc4ccn5c(=O)[nH]nc5c4cc3-c3ccccc3)cc2)CCC1,cell viability,,,EC60,2.2 µM
C#C[C@@]1(O)[C@@H](CO)O[C@@H](n2cc(Br)c3c(N)ncnc32)[C@@H]1O,SRB,NCI-60 screen,,TGI,637 nM and 352 nM
O=C1NC(=NCc2cccs2)S/C1=C\c1ccc2ncccc2c1,MTS,NCI60 panel,,IC50,6.97 µM
CC(C)[C@H](NC(=O)c1cc(Cl)ccc1OCCNC(=O)OC(C)(C)C)C(=O)Nc1ccc([N+](=O)[O-])cc1Cl,,"0.1 to 10 µM, 2 weeks",,colony formation,inhibited
NNc1nc(-c2ccc(Cl)cc2)c2c(NC(=O)c3ccccc3)nnc-2[nH]1,NCI60 SRB,10 µM,,growth percent,118%
O=C1NC(c2ccccc2)(c2ccccc2)C(=O)N1Cc1cn(-c2c3ccccc3nc3ccccc23)nn1,NCI60 single-dose screen,10 µM,,growth percentage,38.2%
CCCN1CCN(c2ccc3[nH]c(-c4ccc5[nH]c(-c6ccc(OCC)c(OCC)c6)nc5c4)nc3c2)CC1,SRB,"10 µM, 48 h",,growth percent,-77.2%
CCn1c(-c2nonc2N)nc2c(C#CC(C)(C)O)ncc(OC[C@H]3CCCNC3)c21,flow cytometry PI,"EC60, 72 h",,G2/M phase cells,30%
COc1cc(/C=C/C(=O)N2CCC=CC2=O)cc(OC)c1OC,"quantitative RT-PCR, item: PRDX5","30 µM, 8 h",reference: untreated cells,mRNA level,118 ± 11%

# Repeated from above:
Structure (SMILES),test,setting,how to read,measurement,value
COc1cccc2c1C(=O)c1c(O)c3c(c(O)c1C2=O)C[C@@](O)(C(=O)CO)C[C@@H]3O[C@H]1C[C@H](N)[C@H](O)[C@H](C)O1,WST-1,"concentration not given, 72 h, highest tested concentration",,maximal cytotoxicity,90.9%
CCCCN1CCN(c2ccc3[nH]c(-c4ccc5[nH]c(-c6ccc(OCC)cc6)nc5c4)nc3c2)CC1,SRB,"10 µM, 48 h",,growth percent,67.3%
CCCCN1CCN(c2ccc3[nH]c(-c4ccc5[nH]c(-c6ccc(C(F)(F)F)cc6)nc5c4)nc3c2)CC1,SRB,"10 µM, 48 h",,growth percent,-62.1%
C#C[C@@]1(O)[C@@H](CO)O[C@@H](n2cc(I)c3c(N)ncnc32)[C@@H]1O,SRB,NCI-60 screen,,TGI,421 nM and 746 nM
NC1(c2ccc(-c3nc4ccn5c(=O)[nH]nc5c4cc3-c3ccccc3)cc2)CCC1,cell viability,,,EC60,2.2 µM
